Assay results from different studies.
A part holds a random share of what one study measured. Substitutions count along the parent as printed.

Series 1 — technique: RNA Bind-n-Seq; form: RNA; medium: in vitro; concentration: 365 nM; relative to: no-protein control; direction: higher = stronger binding
Target: RNA binding protein fox-1 homolog 2, RRM domain, GST-SBP tag (RBFOX2, Homo sapiens, UniProt O43251-10, residues 100-194)
Setting: natural RNA segment, single round, ends assumed
Shared flanks, not repeated: GGGAGUUCUACAGUCCGACGAUC … UGGAAUUCUCGGGUGCCAA
Construct (chain): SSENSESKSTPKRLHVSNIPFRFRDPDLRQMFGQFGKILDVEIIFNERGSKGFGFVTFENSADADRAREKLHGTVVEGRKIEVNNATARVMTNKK
Sequence	RBNS enrichment (R)
GUUGAUGUGGUAGCCACCUGCUGCAAUGGUUCCUCUUGUAGGUGAAUAAAUGUCUUGUCUACCCACACUCUUCCCAGGAUUGUGUCUCAUAAAAAUAUAUUUGGAAAUGU	1.08
UUAUAUUUUCAAACAUGGCAAGUUAAAUAUAAAUUCAUUUAAAUAUAUAGUUUUGUACUUUUCUACCAUGUAAAUGUGCAAUGUAUAUAAAAGUUAUAAUGUGUAUUUGU	0.942
UGUUUUGUUUUGUUUUGUUCUGUUUUUUAACGUUCUUUCACCUUUCCUCUACUUUGGCUUUGCAAAUUUCAGUCUGUAGAGCCUGAAAUUAAAUUAUUUUAUAGUGCCUG	0.863
AUGCUAUGUGCCCUCUUCACUUAGAGCGAGCUUUAGUGUGUCAAGGGACUCUGCUUUCCUGUACUUCCUAAAAGUACAUUCACUAAUACUGAAGCAUCAAAGUGUAGUUU	0.539
GUCAGUCUUAAUUCCCAUGCCAAAGGACAAACAGGUGUGACAUUUGGAUAGAUGAAUACUGGGAUUGGCUCUGGAGCAUGUGUUUUGAGUUGAACCUUGCAGUCCUUUCU	2.46
UUGAAUUAUUUUAUCAUGCUGUUGCUGGGGAAUAUGACUAACCCUUUUGAAGCUACUAAUUUUAUGUCGAGCUUUAAAGUCCAUAAUUGUUAUCUUCAGAAAAUAUUAUU	0.507
GCCUCAGUGUUGGCCAAACUCUGGAGUCACUGACUGGUUUGACUUUCAUACGGUGAAUAUGCAUUUGGUCUGUACUGAUCAUGGAAUAAACACAUCUCUCUUUUUUUAAU	0.339
GCGGCUGAGCUGCUGGCUCUCUGGAGACUCCGUAGAGAACCCAGCGAUCAAAAACCCACUGUGAUGUGUUGGUGGCUUUGUCUGAAGCACCAGGGAGUUUGGUGAAGCUA	0.792

Series 2 — target: CCND2, cyclin fold, Cln2 fusion (human); technique: yeast growth competition, sequencing; medium: yeast; setting: weak parent motif; relative to: not given; direction: higher = stronger binding
Parent: ORC1 docking peptide (human); PRARKRLELGNLG
Substitution	normalised enrichment score
G10W	0.458
P1D	0.708
G10A	0.331
P1A	0.328
R4I	0.101
G10Q	-0.0224
R2N	0.365
L9W	0.298
A3R	-0.00777
L9Y	0.44
L7W	0.248
E8W	0.13
L12C	0.185
K5Y	-0.0448
N11P	0.338

Series 3 — technique: competition protein-binding microarray; form: double-stranded DNA, one strand shown; medium: in vitro; concentration: 2 µM; added: Pho4 competitor, 0.05 µM; direction: higher = stronger binding; shared flanks, not repeated: … GTCTTGATTCGCTTGACGCTGCTG
Target: Centromere-binding protein 1, full length, His-tagged (CBF1, Saccharomyces cerevisiae, UniProt P17106, residues 1-351)
Sequence of UniProt P17106 (whole entry, looked up): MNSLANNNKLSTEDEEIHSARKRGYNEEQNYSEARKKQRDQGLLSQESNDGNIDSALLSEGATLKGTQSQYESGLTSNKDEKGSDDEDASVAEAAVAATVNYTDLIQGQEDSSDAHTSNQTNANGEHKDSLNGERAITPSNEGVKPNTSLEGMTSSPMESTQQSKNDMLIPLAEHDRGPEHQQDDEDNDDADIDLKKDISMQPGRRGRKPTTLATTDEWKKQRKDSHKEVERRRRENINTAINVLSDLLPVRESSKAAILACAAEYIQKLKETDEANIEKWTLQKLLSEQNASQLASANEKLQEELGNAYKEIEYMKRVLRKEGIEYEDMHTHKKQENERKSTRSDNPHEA
Setting: whole 60-bp probe, lowest competitor level
Sequence	fluorescence intensity [a.u.]
CTTTCCCGATCTTTTCACGTGTTGTTAGCACATTTG	823
TCGTCGATGAAGCTGAACGTGCAAAGCTGGACTTAC	83.8
CAGCGCTAAGGACATGCCGTGATGGCATCAACCGGC	60.5
CATACCCAACCTTGGCACGTGGGTGAAGATATTTGT	1810
TTGTTTCCTGGGAACTACGTGCAAATCAACAAGAAA	78.1
ATAACCGCGCAATACCGCGTGCTGTATCGGCGTCCA	86
CTATCTAGTACCCGCCCCGTGGCAAAAAAAGAAGAC	124
CTAACGAAGGTTTTTCACGTGTTATACAAGCCAAGT	908
TAAGTTTTTGGCCTGTGCGTGTTGATAAGGGAAAGA	86.8
TTGACCCGGAATCTATTCGTGACGGAAAGGTTAAGG	84.8
CTAACGAAGGTTTGTCCAGTGGGTGACAAGCCAAGT	64.4
GGTCCCGGTCTACCGCTCGTGGCAATTTCAAAAGCC	72.3
GTCTTGTCTCATTGGCCAGTGGGTGTCCCCACTTCA	65.1
CTAACGAAGGTTTGCACCGTGGGTGACAAGCCAAGT	70.1
TCTGGATCAGAAGATTACGTGTCCTGAGAAGATTAT	75.9
ACAAGACGCTGCCATCACGCAAACTATGTTTTGACA	86.4

Series 4 — target: BIRC6 UBC core domain (UniProt Q9NR09); technique: yeast two-hybrid; medium: yeast; setting: mostly zero background; relative to: not given; direction: higher = stronger interaction
B1: MKRN3 RING domain (UniProt Q13064); chain FAVQRGMDKVCGICMEVVYEKANPNDRRFGILSNCNHSFCIRCIRRWRSARQFENRIVKSCPQCRVTSELVIPSE
B2: CNOT4 RING domain (UniProt O95628); chain MSRSPDAKEDPVECPLCMEPLEIDDINFFPCTCGYQICRFCWHRIRTDENGLCPACRKPYPED
B3: TRIM11 RING domain (UniProt Q96F44); chain LSTNLQEEATCAICLDYFTDPVMTDCGHNFCRECIRRCWGQPEGPYACPECRELSPQRNLRP
B4: RNF182 RING domain (UniProt Q8N6D2); chain AESQASDELECKICYNRYNLKQRKPKVLECCHRVCAKCLYKIIDFGDSPQGVIVCPFCRFETCLPDDEV
B5: ZNRF4 RING domain (UniProt Q8WWF5); chain VRTFTWHNDLCAICLDEYEEGDQLKILPCSHTYHCKCIDPWFSQAPRRSCPVCKQSVAATEDSF
B6: RNF103 RING domain (UniProt O00237); chain WPADMLHCTECVVCLENFENGCLLMGLPCGHVFHQNCIVMWLAGGRHCCPVCRWPSYKKKQPY
B7: ARIH2 RING domain (UniProt O95376); chain HVPTSHPPHHCAVCMQFVRKENLLSLACQHQFCRSCWEQHCSVLVKDGVGVGVSCMAQDCPLRTPEDFVF
B8: RNF6 RING domain (UniProt Q9Y252); chain NSIDSELGKICSVCISDYVTGNKLRQLPCMHEFHIHCIDRWLSENCTCPICRQPVLGSNIAN
B9: HLTF RING domain (UniProt Q14527); chain LILSSGSDEECAICLDSLTVPVITHCAHVFCKPCICQVIQNEQPHAKCPLCRNDIHEDNLLE
Target sequence (chain): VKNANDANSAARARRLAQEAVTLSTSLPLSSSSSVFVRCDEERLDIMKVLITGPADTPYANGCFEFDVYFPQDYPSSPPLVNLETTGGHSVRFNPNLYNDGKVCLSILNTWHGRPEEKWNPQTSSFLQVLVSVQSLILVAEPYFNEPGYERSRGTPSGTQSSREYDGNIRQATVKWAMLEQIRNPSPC
Sequence	lacZ reporter activity
B1 (MKRN3 RING domain)	0
B2 (CNOT4 RING domain)	0
B3 (TRIM11 RING domain)	0
B4 (RNF182 RING domain)	0
ASEEEFQFLRCQQCQAEAKCPKLLPCLHTLCSGCLEASGMQCPICQAPWPLGADTP (PML RING domain (UniProt P29590))	0
DDVLTKDAGECVICLEELLQGDTIARLPCLCIYHKSCIDSWFEVNRSCPEHPAD (ZNRF1 RING domain (UniProt Q8ND25))	0
B5 (ZNRF4 RING domain)	0
B6 (RNF103 RING domain)	0
B7 (ARIH2 RING domain)	0
B8 (RNF6 RING domain)	0
B9 (HLTF RING domain)	0
